{"data": "Measurements gathered from unrelated publications", "note": "Every numbered part comes from another study and shows a few of its results, in no order."}
{"data": "Block 1", "target": "Ras GTPase-activating protein-binding protein 1, RRM domain (G3BP1, Homo sapiens, UniProt Q13283)", "technique": "RNA Bind-n-Seq", "molecule type": "RNA", "sample": "in vitro", "concentration": "1 µM", "notes": "whole 134-nt RNA, ends assumed", "together with": "150 mM KCl", "baseline": "input library", "reading": "higher = stronger binding", "chain of UniProt Q13283 (whole entry, looked up)": "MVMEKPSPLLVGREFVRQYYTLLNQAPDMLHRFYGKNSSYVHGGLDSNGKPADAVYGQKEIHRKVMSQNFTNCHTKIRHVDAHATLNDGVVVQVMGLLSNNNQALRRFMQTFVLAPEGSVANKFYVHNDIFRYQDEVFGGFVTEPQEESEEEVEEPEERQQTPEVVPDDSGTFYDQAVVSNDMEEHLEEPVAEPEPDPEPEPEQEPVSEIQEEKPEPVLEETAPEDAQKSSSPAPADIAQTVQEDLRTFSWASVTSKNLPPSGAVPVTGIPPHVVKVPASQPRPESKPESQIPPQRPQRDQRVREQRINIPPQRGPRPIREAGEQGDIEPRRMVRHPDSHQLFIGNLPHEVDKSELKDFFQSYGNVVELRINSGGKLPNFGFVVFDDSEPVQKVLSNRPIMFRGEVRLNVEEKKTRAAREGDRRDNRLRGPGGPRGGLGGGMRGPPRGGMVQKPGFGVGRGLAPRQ"}
{"Oligonucleotide": "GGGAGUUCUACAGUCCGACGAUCUCCUGUGCUACACAUCGUAUGUACCGAAUCGGGAAAAAAGGAAAAAAGGGGAAAAAAGGGAAAGUAUUAUGUUACGCCGUUCGGAUCUGCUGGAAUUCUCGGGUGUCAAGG", "log2 enrichment": 0.0302}
{"Oligonucleotide": "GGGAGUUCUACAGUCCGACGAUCCACAGACAACACGCACCCACACAGACACAGAGGGAUGGGGUUGGGAUGGGGACAGGGUGCACAGCAGGGCGGGGUAGGACCCCAGCCCCUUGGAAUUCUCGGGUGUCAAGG", "log2 enrichment": 0.0254}
{"Oligonucleotide": "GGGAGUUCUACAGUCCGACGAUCUGGCCCUGGUGGCAUGCGGGGAGGAAGAGGUGGCCUCAUGGAUCGUGGUGGUCCCGGUGGAAUGUUCAGAGGUGGCCGUGGUGGAGUCAGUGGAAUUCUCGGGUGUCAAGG", "log2 enrichment": 1.62}
{"Oligonucleotide": "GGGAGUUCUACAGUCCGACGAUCUGUGCGGGAGACAGGCGCCAACGGCACCUCUUUCAGUGUCCGCAAGACAGCCUACUGCGACAUCCACACGCCUCCAGGUUCAGCACGCCGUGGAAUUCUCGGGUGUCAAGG", "log2 enrichment": -0.342}
{"Oligonucleotide": "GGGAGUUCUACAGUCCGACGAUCCCUCAAGUCCUGUGCUACACAUCGUAUGUACCGAAUCGGAGGGGAGGGGAGGGAAAGUAUUAUGUUACGCCGUUCGGAUCUGCACUUCCAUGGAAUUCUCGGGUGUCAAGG", "log2 enrichment": 0.335}
{"Oligonucleotide": "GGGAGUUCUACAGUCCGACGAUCGUCCUGUGCUACACAUCGUAUGUACCGAAUCAAACCCCCAAAUUUUUAAAUUUUUAAAAAAGUAUUAUGUUACGCCGUUCGGAUCUGCACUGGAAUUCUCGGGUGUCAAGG", "log2 enrichment": -0.604}
{"Oligonucleotide": "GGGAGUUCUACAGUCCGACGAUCGUCCUGUGCUACACAUCGUAUGUACCGAAUCGGGGUUUGGGGUUUGGGGAAAAAGGGGAAAGUAUUAUGUUACGCCGUUCGGAUCUGCACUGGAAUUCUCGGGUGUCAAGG", "log2 enrichment": 1.66}
{"Oligonucleotide": "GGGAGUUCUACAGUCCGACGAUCCACAGACAACACGCACCCACACAGACACAGAGGGAAGGGGUUGGGAUGGGGACAGGGUGCACAGCAGGGCGGGGUUGGACCCCAGCCCCUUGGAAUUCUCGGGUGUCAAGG", "log2 enrichment": -0.306}
{"Oligonucleotide": "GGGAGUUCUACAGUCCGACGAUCACCAUGCAGGUGGGCAUCUUUGGGAAGUGGGGCAAGGGGGGGAUAGGGAGGGGGGUAACACUUAGGGAACAGGUGGUCCCAGGUCGUUUCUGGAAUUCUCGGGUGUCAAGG", "log2 enrichment": 0.974}
{"data": "Block 2", "target": "PABPC1L2, full length, GST fusion (mouse, UniProt A0ABA7IW68)", "technique": "RNAcompete", "molecule type": "RNA", "sample": "in vitro", "concentration": "20 nM", "notes": "7-mer, probes averaged, single round", "baseline": "mean of 7-mers", "reading": "higher = stronger binding"}
{"Oligonucleotide": "GUGUACC", "7-mer Z-score": -0.286}
{"Oligonucleotide": "AAUACUA", "7-mer Z-score": 0.273}
{"Oligonucleotide": "CCGAAGC", "7-mer Z-score": -0.113}
{"Oligonucleotide": "AUAACAC", "7-mer Z-score": 0.00617}
{"Oligonucleotide": "UGGAUUG", "7-mer Z-score": -0.0536}
{"Oligonucleotide": "AUUAAGC", "7-mer Z-score": -0.0844}
{"Oligonucleotide": "AGCAAAG", "7-mer Z-score": 0.233}
{"Oligonucleotide": "CAGACGG", "7-mer Z-score": 0.439}
{"Oligonucleotide": "AACAUCG", "7-mer Z-score": 0.298}
{"Oligonucleotide": "AAGGUGC", "7-mer Z-score": 0.108}
{"Oligonucleotide": "UCGUAAC", "7-mer Z-score": -0.282}
{"Oligonucleotide": "CUUCCGC", "7-mer Z-score": -0.483}
{"Oligonucleotide": "CUCUAGU", "7-mer Z-score": -0.414}
{"Oligonucleotide": "CGGCCUA", "7-mer Z-score": -0.275}
{"Oligonucleotide": "CGACAUC", "7-mer Z-score": -0.222}
{"Oligonucleotide": "CGCAUCC", "7-mer Z-score": -0.244}
{"Oligonucleotide": "AAGAAAA", "7-mer Z-score": 4.79}
{"Oligonucleotide": "CCCUCUA", "7-mer Z-score": -0.269}
{"data": "Block 3", "target": "Histone acetyltransferase KAT6A, winged helix 2, GST fusion (KAT6A, Homo sapiens, UniProt Q92794, residues 85-181)", "technique": "protein binding microarray", "molecule type": "double-stranded DNA, one strand shown", "sample": "in vitro", "concentration": "not given", "notes": "8-mer, flanks averaged, mean of 2 arrays, mostly near background", "baseline": "not given", "reading": "higher = stronger binding", "Target sequence (chain)": "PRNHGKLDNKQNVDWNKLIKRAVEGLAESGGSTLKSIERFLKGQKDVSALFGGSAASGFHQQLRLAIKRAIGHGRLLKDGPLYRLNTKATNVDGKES"}
{"Oligonucleotide": "ACAGTGAC", "E-score": 0.0383}
{"Oligonucleotide": "ACAGCTAG", "E-score": -0.267}
{"Oligonucleotide": "AGCCCTCA", "E-score": 0.0197}
{"Oligonucleotide": "AGGCATGA", "E-score": -0.12}
{"Oligonucleotide": "GAATAATA", "E-score": 0.0012}
{"Oligonucleotide": "AATCTACC", "E-score": -0.102}
{"Oligonucleotide": "TCTACGCA", "E-score": 0.0482}
{"Oligonucleotide": "CCGGTCTA", "E-score": -0.105}
{"Oligonucleotide": "CGTACCGA", "E-score": -0.0595}
{"Oligonucleotide": "TATACGAA", "E-score": 0.0294}
{"Oligonucleotide": "AAGGTTTG", "E-score": -0.00517}
{"Oligonucleotide": "ACTGCCTC", "E-score": -0.0813}
{"Oligonucleotide": "CGTGATCA", "E-score": -0.128}
{"Oligonucleotide": "ATGATGAA", "E-score": 0.034}
{"Oligonucleotide": "CTTGCCAC", "E-score": 0.00114}
{"Oligonucleotide": "GGGTTGAA", "E-score": -0.061}
{"Oligonucleotide": "AGCGCTGA", "E-score": 0.0304}
{"Oligonucleotide": "AATCTTAT", "E-score": 0.0889}
{"Oligonucleotide": "TAGAGTCA", "E-score": -0.316}
{"Oligonucleotide": "ATATATTA", "E-score": -0.0163}
{"Oligonucleotide": "AACAGGTG", "E-score": -0.127}
{"Oligonucleotide": "CGAGCGAC", "E-score": 0.0541}
{"Oligonucleotide": "GAGAAACA", "E-score": 0.138}
{"Oligonucleotide": "TATCTAGA", "E-score": 0.118}
{"Oligonucleotide": "TAGTCCCA", "E-score": 0.000165}
{"data": "Block 4", "target": "TAR DNA-binding protein 43, full length, His tag (TARDBP, Homo sapiens, UniProt Q13148, residues 1-414)", "technique": "RNA Bind-n-Seq", "molecule type": "RNA", "sample": "in vitro", "concentration": "20 nM", "notes": "6-mer, flanks averaged, single round", "together with": "150 mM LiCl", "baseline": "input library", "reading": "higher = stronger binding"}
{"Oligonucleotide": "UUGCCU", "6-mer enrichment (R)": 1.06}
{"Oligonucleotide": "CCCAUG", "6-mer enrichment (R)": 1.02}
{"Oligonucleotide": "AGAGAG", "6-mer enrichment (R)": 1.1}
{"Oligonucleotide": "UCCCAA", "6-mer enrichment (R)": 0.921}
{"Oligonucleotide": "UAUACU", "6-mer enrichment (R)": 0.895}
{"Oligonucleotide": "UCAUCA", "6-mer enrichment (R)": 0.818}
{"Oligonucleotide": "GCGGAA", "6-mer enrichment (R)": 0.978}
{"Oligonucleotide": "UUUGGA", "6-mer enrichment (R)": 1.08}
{"Oligonucleotide": "CGUUGU", "6-mer enrichment (R)": 1.06}
{"Oligonucleotide": "GUAAUU", "6-mer enrichment (R)": 0.99}
{"Oligonucleotide": "AUUCGA", "6-mer enrichment (R)": 0.816}
{"Oligonucleotide": "CAUCAU", "6-mer enrichment (R)": 0.865}
{"Oligonucleotide": "UAACAA", "6-mer enrichment (R)": 1.09}
{"Oligonucleotide": "UUCGGC", "6-mer enrichment (R)": 0.922}
{"Oligonucleotide": "CAAACG", "6-mer enrichment (R)": 0.792}
{"Oligonucleotide": "UCCCUU", "6-mer enrichment (R)": 1.18}
{"Oligonucleotide": "GGUAUU", "6-mer enrichment (R)": 1.03}
{"data": "Block 5", "target": "RNA binding protein fox-1 homolog 2, RRM domain, GST-SBP tag (RBFOX2, Homo sapiens, UniProt O43251-10, residues 100-194)", "technique": "RNA Bind-n-Seq", "molecule type": "RNA", "sample": "in vitro", "concentration": "365 nM", "notes": "natural RNA segment, single round, ends assumed", "baseline": "no-protein control", "reading": "higher = stronger binding", "Target sequence (chain)": "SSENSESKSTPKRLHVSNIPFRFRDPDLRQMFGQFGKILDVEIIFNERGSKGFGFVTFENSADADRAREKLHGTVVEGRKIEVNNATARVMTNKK"}
{"Oligonucleotide": "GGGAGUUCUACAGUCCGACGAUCUGUUGCAGCUUUACGGUUUUUAAACUAUUUUAGAUAUUCUUAAACUAUGAACCUUCUAAACAGUACCAACACUGUCAUGUGACUAAUGCUGCCUCUAGACCUCGCCCACGUGGAAUUCUCGGGUGCCAA", "RBNS enrichment (R)": 0.246}
{"Oligonucleotide": "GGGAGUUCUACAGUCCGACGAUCAAACAGAACAGAACAGCCUUUGCACUAAAUUAGUGACUCGCGCAGUGAACACAGGCUGCGAUGCUCUGGACAUGUGUGCAUGAGCACGCCGUGGACUCUCGUGCAGGACUUGGAAUUCUCGGGUGCCAA", "RBNS enrichment (R)": 0.567}
{"Oligonucleotide": "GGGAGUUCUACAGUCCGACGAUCGCAAACUUUUAUGGCCUGUCCCAUGUGCAUCUUAUUUAAAAUUUCCCCCAGAAAUCACUCUCCUGUUUACUAUUCCAGAGCUCUAGUUGUAGGCAGCGUGUGGCGUCUCAUGGAAUUCUCGGGUGCCAA", "RBNS enrichment (R)": 2.31}
{"Oligonucleotide": "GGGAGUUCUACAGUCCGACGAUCUUUGCUUAGGGUAUAUUUUUUCAGUGUCUGAAAGUCAAAGGUAUUCCUGUCACAACUGUAAACAAACUUAUCCUAAAUGUGUUAAAACAUAUUCUUGGGUACUCUAUUUAUGGAAUUCUCGGGUGCCAA", "RBNS enrichment (R)": 0.428}
{"Oligonucleotide": "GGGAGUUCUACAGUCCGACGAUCGUGUUUUAAGAAGCACAUGGCCUCAUUUUCCUUAGAAACAAGACAAAGCCUUUUUAAAAUGUUUUUUUUUCACUUUAAAAUAGGGUAUUCAAAGUGGAGUAACGUGUAUUUGGAAUUCUCGGGUGCCAA", "RBNS enrichment (R)": 0.428}
{"Oligonucleotide": "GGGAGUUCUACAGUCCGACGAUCGGGUGGCCAUGGGCCAAAGGAAAAAGCACUGUCCUAUCUCAAGGUCCACUGUGGAAAUGUCCACCUUGCCCACCUCCAAGGGGCAACGGAUAGACAGAUCAAAUGGUGGCUGGAAUUCUCGGGUGCCAA", "RBNS enrichment (R)": 0.241}
{"Oligonucleotide": "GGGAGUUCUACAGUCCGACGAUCAAAUCCAUUCAUACUAGUGGACAUCAUUUCUAAGUUUCCUUGCUACUGUUACACCCUUUGAACGGAUGCUUUAGCUCUGAUGUCGUCACAGAGCCUUGGUUUAUCCUGUAUGGAAUUCUCGGGUGCCAA", "RBNS enrichment (R)": 0.692}
{"Oligonucleotide": "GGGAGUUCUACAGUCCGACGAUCGACAAAACCCUGUCUCUACAAAAAUACAAAAAUUAGCUGGGUGUGGUGGGGCAUGCCUGUAGUCCUGGCUACUCAAGAGGCUGAGGUGGGAGGAUUGCUUGAGCGCAGGAUGGAAUUCUCGGGUGCCAA", "RBNS enrichment (R)": 2.15}
{"note": "Repeated from above (block 4):"}
{"Oligonucleotide": "UCCCAA", "6-mer enrichment (R)": 0.921}
{"Oligonucleotide": "UAUACU", "6-mer enrichment (R)": 0.895}
{"Oligonucleotide": "UCAUCA", "6-mer enrichment (R)": 0.818}
{"Oligonucleotide": "GCGGAA", "6-mer enrichment (R)": 0.978}
{"Oligonucleotide": "UUUGGA", "6-mer enrichment (R)": 1.08}
{"Oligonucleotide": "CGUUGU", "6-mer enrichment (R)": 1.06}
{"Oligonucleotide": "GUAAUU", "6-mer enrichment (R)": 0.99}
{"Oligonucleotide": "AUUCGA", "6-mer enrichment (R)": 0.816}
{"Oligonucleotide": "CAUCAU", "6-mer enrichment (R)": 0.865}
